# Published values from different studies.
# Each numbered part is a random draw from the data of one study; scales do not carry over between parts. Changes are numbered by the printed parent chain.

# Study 1
# Target: Sal-like protein 4, full length isoform B (SALL4, Homo sapiens, UniProt Q9UJQ4-2, residues 1-616)
# Method: universal PBM
# Form: double-stranded DNA, one strand shown
# Sample: in vitro
# Concentration: not given
# Setting: 8-mer, flanks averaged, mean of replicates
# Direction: higher = stronger binding
# Construct (chain): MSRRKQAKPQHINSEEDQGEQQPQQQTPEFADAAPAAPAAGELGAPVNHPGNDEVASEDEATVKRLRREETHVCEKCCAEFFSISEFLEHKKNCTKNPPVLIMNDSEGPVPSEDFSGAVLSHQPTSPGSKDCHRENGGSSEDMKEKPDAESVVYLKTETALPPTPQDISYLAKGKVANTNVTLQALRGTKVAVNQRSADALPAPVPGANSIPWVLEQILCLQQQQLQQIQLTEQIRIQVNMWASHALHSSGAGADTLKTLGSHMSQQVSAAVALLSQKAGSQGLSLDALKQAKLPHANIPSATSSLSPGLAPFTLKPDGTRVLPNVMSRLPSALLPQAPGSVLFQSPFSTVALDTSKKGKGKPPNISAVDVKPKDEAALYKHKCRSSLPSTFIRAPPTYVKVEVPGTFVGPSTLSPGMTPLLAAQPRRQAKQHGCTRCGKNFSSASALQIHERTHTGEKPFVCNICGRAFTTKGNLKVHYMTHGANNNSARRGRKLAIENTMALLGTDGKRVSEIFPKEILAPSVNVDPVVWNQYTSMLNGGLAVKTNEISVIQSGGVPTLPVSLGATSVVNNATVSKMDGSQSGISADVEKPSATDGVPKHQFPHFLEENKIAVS
Oligonucleotide,E-score
GGTTAAAA,0.106
AGCCCGAT,-0.159
TTACGTAA,0.22
GATTGCAA,0.0747
CCGAACTA,-0.0949
AATTGGCC,-0.0597
GACTCGCC,-0.33
CTAACTTA,0.191
GCAGGGAC,-0.276
GCCCCGTA,-0.191
AACAAGCT,0.0438
CTGATAGC,-0.0864
ACTAAATG,0.203
CGATCGGA,-0.144
GTGTGGTA,-0.0577
ACACTACC,-0.244
ATTTCATG,0.16

# Study 2
# Target: ABI1, truncated, D143A, DHFR fusion (Arabidopsis thaliana)
# Method: DHFR PCA, deep sequencing
# Sample: yeast
# Setting: methotrexate growth selection, single substitutions
# Together with: (+)-ABA 0.032 µM
# Baseline: wild-type fitted maximum
# Direction: higher = stronger binding
# Starting sequence: PYL1, truncated, DHFR fusion (Arabidopsis thaliana); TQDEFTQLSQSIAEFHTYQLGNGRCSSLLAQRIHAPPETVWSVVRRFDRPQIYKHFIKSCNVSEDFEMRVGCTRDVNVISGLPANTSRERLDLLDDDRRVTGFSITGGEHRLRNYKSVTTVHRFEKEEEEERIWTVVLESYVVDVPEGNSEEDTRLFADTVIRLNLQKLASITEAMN; partner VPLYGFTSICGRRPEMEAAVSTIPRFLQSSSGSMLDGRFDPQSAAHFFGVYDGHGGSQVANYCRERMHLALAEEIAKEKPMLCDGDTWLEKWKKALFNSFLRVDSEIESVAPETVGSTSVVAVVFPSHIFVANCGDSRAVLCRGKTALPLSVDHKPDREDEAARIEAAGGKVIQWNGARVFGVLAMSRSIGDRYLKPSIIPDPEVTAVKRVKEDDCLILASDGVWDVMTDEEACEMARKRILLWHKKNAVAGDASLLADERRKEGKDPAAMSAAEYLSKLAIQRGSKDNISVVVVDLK
Change,relative binding score
D3W,15.4%
R90N,0.00852%
T39F,-3.39%
D65V,-5.66%
V142Q,6.46%
K116Q,25.5%
V161K,0.174%
I52Y,4.87%
R24T,20.7%
H55K,6.86%
R155P,-0.655%
F103Q,0.48%
V62Y,5.06%
A30L,12.6%
L156W,3.71%
N85D,14.5%
V118N,-6.74%
S140W,2.11%

# Study 3
# Target: Interferon regulatory factor 7, full length, phosphomimetic (IRF7, Homo sapiens, UniProt Q92985, residues 1-503, S101K/S471D/S472D/S475D/S476D/S477D/S483D/S484D/S487D)
# Method: protein-binding microarray
# Form: double-stranded DNA, one strand shown
# Sample: in vitro
# Concentration: 250 nM
# Setting: 60-bp whole probe
# Together with: salmon DNA 0.4 mg/ml
# Baseline: random background probes
# Direction: higher = stronger binding
# Shared flanks, not repeated: GCCTAGCAC … GTCTTGATTCGCTTGACGCTGCTG
# Target sequence (chain): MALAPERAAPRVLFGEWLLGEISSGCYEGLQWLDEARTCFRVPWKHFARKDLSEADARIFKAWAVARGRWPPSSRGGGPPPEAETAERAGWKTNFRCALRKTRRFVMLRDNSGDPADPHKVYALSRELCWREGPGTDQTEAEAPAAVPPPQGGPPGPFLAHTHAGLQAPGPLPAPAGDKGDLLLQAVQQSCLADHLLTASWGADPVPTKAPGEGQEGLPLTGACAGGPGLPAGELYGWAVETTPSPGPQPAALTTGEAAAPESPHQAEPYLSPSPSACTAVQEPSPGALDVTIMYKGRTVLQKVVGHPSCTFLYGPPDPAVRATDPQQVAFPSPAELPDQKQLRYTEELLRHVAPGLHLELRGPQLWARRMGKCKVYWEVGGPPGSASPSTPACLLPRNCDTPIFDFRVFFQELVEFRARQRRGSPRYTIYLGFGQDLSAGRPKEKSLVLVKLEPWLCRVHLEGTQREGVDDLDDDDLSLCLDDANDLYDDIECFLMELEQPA
Oligonucleotide,log fluorescence [z-score]
ACAGATGAGGAACCAAGGCCGTGCTAG,-0.16
CCCTGCGTGGTCTCGAGCTGGTGCTAG,-1.11
TTAGGCCTGGACACTGGGTTAGTGCTA,-0.697
TTAGGTATCGACTATCGCTTAGTGCTA,0.311
TTAGATATCTGGTATCGATTAGTGCTA,0.908
TTAGATATCCTTTTCCTTTAGTGCTAG,0.943
TCACATTGCTTTCTCTTACTGTGCTAG,1.05
TTAAATATCGGGTTTCGATTAGTGCTA,7.18
TTAGGTATCGGTATCGGTTCGTGCTAG,4.57
CTTTGCCTCATCTTGCAGGTAGTGCTA,0.486
TTTGGACTGGGGTATCGGTTAGTGCTA,0.245
TCATGTCTGTGTCACAGAGAGTGCTAG,0.0792
TCAACTGTCTGTTTCCTACTGTGCTAG,0.377

# Study 4
# Target: Ras GTPase-activating protein-binding protein 1, RRM domain (G3BP1, Homo sapiens, UniProt Q13283)
# UniProt Q13283, sequence (whole entry, looked up): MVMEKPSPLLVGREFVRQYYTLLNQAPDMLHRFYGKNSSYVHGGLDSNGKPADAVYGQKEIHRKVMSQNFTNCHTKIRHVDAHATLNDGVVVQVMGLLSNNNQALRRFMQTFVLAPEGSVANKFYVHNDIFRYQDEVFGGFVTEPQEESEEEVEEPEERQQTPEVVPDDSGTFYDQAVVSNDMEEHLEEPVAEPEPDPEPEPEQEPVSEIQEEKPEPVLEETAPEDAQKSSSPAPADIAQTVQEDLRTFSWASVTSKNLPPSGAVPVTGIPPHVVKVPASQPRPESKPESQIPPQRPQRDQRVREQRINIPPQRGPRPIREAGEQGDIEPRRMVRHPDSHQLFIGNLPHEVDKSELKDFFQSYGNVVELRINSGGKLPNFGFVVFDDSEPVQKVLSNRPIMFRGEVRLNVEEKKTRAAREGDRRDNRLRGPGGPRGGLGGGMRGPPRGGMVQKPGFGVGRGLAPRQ
# Method: RNA Bind-n-Seq
# Form: RNA
# Sample: in vitro
# Concentration: 1 µM
# Setting: whole 134-nt RNA, ends assumed
# Together with: 150 mM KCl
# Baseline: input library
# Direction: higher = stronger binding
# Shared flanks, not repeated: GGGAGUUCUACAGUCCGACGAUC … UGGAAUUCUCGGGUGUCAAGG
Oligonucleotide,log2 enrichment
UCAAGUCCUGUGCUACACAUCGUAUGUACCGAAUCGGAAAAAAAGGUUUGGAGGAAAGUAUUAUGUUACGCCGUUCGGAUCUGCACUUCC,-0.206
GCAGGAAGUAAAAACAAAUGGAAAUGCUUCGGAUAGUGGCAGGGGUGGGGGUUGCUAAGGAAAGGGUGGGAUGGGAGUGCGUAAAGAGUU,1.06
GAUGAGACAGAUGCUUCAUCAGCAGUGAAAGUGAAAAGAGCAGUCCAGAAAACAUCCGAUUUAAUAGUGUUGGGUCUCCCAUGGAAAACA,-0.35
ACCAUGCAGGUGGGCAUCUUUGGGAAGUGGGGCAAGGGGGGGAUAGGGAGGGGGGUAACACUUUGGGAACAGGUGAUCCCAGGUCGUUUC,0.701
AAGUCCUGUGCUACACAUCGUAUGUACCGAAUCGGAAAAGGGGAAAAGGGAAAAGGAAAGUAUUAUGUUACGCCGUUCGGAUCUGCACUU,0.0299
UGGGCAAUGUGUCGGCUGCAUGCACGAGCCAGGAACUGCGCAGCCUCUUCGAGCGCCGCGGACGCGUCAUCGAGUGUGACGUGGUGAAAG,-0.486
CUGUGCUACACAUCGUAUGUACCGAAUCAAAUUUUUUUAAAUUUUUUUAAACCCCCCCAAAAAAGUAUUAUGUUACGCCGUUCGGAUCUG,-1.02
UGGGCCUGGUGGCAUGCGGGGAGGAAGAGGUGGCCUCAUGGAUCGUGGUGGUCCCGGUGGAAUGUUCAGAGGUGGCCGUGGUGGAGACAG,0.327
UCCUGUGCUACACAUCGUAUGUACCGAAUCGGAAAAAAGGAAAAAAGGGGAAAAAAGGGGAAAGUAUUAUGUUACGCCGUUCGGAUCUGC,-0.0374
CAAGUCCUGUGCUACACAUCGUAUGUACCGAAUCGGGGAAAGGAAAGGGAAAGGGAAAGUAUUAUGUUACGCCGUUCGGAUCUGCACUUC,-0.121

# Study 5
# Target: Histone acetyltransferase KAT6A, both winged helices, GST fusion (KAT6A, Homo sapiens, UniProt Q92794, residues 1-181)
# Method: protein binding microarray
# Form: double-stranded DNA, one strand shown
# Sample: in vitro
# Concentration: not given
# Setting: 8-mer, flanks averaged, mean of 2 arrays, mostly near background
# Baseline: not given
# Direction: higher = stronger binding
# Construct (chain): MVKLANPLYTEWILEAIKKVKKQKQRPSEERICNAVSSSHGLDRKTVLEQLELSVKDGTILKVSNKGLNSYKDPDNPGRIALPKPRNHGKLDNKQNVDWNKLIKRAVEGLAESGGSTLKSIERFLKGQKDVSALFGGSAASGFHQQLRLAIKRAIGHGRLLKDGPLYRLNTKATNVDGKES
Oligonucleotide,E-score
CACATAAA,-0.0256
CGTTCGTC,0.198
CAACGTAA,-0.203
CCAACGTC,-0.0424
AACGCTCC,0.0376
GCACCGCA,0.161
CGATCTTA,0.162
GAGATTTA,-0.0776
GTGAGGTA,-0.203
CAAAGCCG,0.204
ACCGAAAC,0.112
CCTGCACC,-0.155
AAGACACG,0.201
AGTCCACC,-0.189
AACCTTGA,-0.0679
AATCTTCT,-0.0606
GGCTCCCA,-0.0677
CGTCGGCA,0.309
CGGCTTCA,0.217
CAAGTACA,-0.101
CTACGGTA,0.0563
CCGCGTCG,0.347
CTACATAG,-0.283
AAGTCCAA,-0.108
CACCCTAA,-0.205

# For quick reference, copied from above (study 3):
Oligonucleotide,log fluorescence [z-score]
TTTGGACTGGGGTATCGGTTAGTGCTA,0.245
TTAGATATCCTTTTCCTTTAGTGCTAG,0.943
TCACATTGCTTTCTCTTACTGTGCTAG,1.05
TTAAATATCGGGTTTCGATTAGTGCTA,7.18
ACAGATGAGGAACCAAGGCCGTGCTAG,-0.16
TCAACTGTCTGTTTCCTACTGTGCTAG,0.377
